Results from different studies.
A part holds a random share of what one study measured.

Block 1 — technique: competition protein-binding microarray; molecule type: double-stranded DNA, one strand shown; medium: in vitro; concentration: 2 µM; with: Pho4 competitor, 0.05 µM; reading: higher = stronger binding; all sequences stand within: … GTCTTGATTCGCTTGACGCTGCTG
Target: Centromere-binding protein 1, full length, His-tagged (CBF1, Saccharomyces cerevisiae, UniProt P17106, residues 1-351)
UniProt P17106, sequence (whole entry, looked up): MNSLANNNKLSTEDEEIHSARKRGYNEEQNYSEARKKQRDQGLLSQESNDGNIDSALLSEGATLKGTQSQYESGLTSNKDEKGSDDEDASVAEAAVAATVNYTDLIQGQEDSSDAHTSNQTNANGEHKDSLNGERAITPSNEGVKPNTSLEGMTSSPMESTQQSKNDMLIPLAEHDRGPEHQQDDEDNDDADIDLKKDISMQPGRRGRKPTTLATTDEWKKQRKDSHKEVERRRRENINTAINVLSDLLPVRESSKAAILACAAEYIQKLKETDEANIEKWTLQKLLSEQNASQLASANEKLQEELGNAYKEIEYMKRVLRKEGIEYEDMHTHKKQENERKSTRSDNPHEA
Notes: whole 60-bp probe, lowest competitor level
Sequence	fluorescence intensity
CTTTCCCGATCTTGTTAGGTGGGTGTAGCACATTTG	60.5 a.u.
CGTCCTAGTGATTGTGGCGTGGGTGCCATGAGGAAG	78.3 a.u.
CTTTTTAGGGACCGTCACGGGAAGCCTGTTGGAGAC	108 a.u.
AAATTACTAAGTTGATTTGTGGGTGACGCCGTATGA	71.7 a.u.
ACTCCCGGTTATCTAGACGTGTTGATCTTGGACACT	76.7 a.u.
CTCAAACGAAGAAAGCACGTGAGGATTGAAGAAAAA	1670 a.u.
CTTCTGTAAATTTTTCACGTGAATTGACGCGCCCCG	649 a.u.

Block 2 — technique: protein binding microarray; molecule type: double-stranded DNA, one strand shown; medium: in vitro; concentration: not given; baseline: not given; reading: higher = stronger binding
Target: Histone acetyltransferase KAT6A, winged helix 2, GST fusion (KAT6A, Homo sapiens, UniProt Q92794, residues 85-181)
Notes: 8-mer, flanks averaged, mean of 2 arrays, mostly near background
Residues (chain): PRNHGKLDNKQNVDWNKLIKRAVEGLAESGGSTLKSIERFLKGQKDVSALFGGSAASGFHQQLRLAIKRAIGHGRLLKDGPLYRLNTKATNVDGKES
Sequence	E-score
CCGTGATC	0.0596
GGCGTGAC	0.0596
ATATAATC	-0.0812
CTAGAGAC	-0.191
ACCGCGTA	-0.00417
AGTGTTTG	-0.0272
GACTCAGC	-0.146

Block 3 — technique: RNA Bind-n-Seq; molecule type: RNA; medium: in vitro; concentration: 1 µM; notes: whole 134-nt RNA, ends assumed; with: 150 mM KCl; baseline: input library; reading: higher = stronger binding
Target: Ras GTPase-activating protein-binding protein 1, C-terminal RGG region (G3BP1, Homo sapiens, UniProt Q13283)
UniProt Q13283, sequence (whole entry, looked up): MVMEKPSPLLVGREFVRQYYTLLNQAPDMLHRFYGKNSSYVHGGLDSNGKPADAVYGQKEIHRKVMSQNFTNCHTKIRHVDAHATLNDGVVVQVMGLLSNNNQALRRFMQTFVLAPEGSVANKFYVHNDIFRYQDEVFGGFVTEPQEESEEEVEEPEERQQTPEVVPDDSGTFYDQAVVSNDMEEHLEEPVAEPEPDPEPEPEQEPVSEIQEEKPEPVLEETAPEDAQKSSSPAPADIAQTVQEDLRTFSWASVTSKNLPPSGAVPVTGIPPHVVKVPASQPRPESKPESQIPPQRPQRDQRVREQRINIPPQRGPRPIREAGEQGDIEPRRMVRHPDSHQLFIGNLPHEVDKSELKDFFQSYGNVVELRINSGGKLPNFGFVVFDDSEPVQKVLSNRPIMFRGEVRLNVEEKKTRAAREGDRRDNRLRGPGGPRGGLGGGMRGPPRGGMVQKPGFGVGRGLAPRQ
All sequences stand within: GGGAGUUCUACAGUCCGACGAUC … UGGAAUUCUCGGGUGUCAAGG
Sequence	log2 enrichment
UCCUGUGCUACACAUCGUAUGUACCGAAUCGGGCCCCCGGGGCCCCCGGGCCCCCGGGGAAAGUAUUAUGUUACGCCGUUCGGAUCUGCA	-1.87
CCUGUGCUACACAUCGUAUGUACCGAAUCAAAUUUUUUUAAAUUUUUAAACCCCCCCAAAAAAGUAUUAUGUUACGCCGUUCGGAUCUGC	-0.806
UUAGGGUCAUGUGAAGGUGGUGCGCUACUUAGUCAAAGAAGUCAAUCAGUUUCCAUCAGAUUCUGAAUGUAUGAGAUACAUAGCAACCAU	-1.85
CAAGUCCUGUGCUACACAUCGUAUGUACCGAAUCGGAAAAGGGGAAAAGGAAAAGGAAAGUAUUAUGUUACGCCGUUCGGAUCUGCACUU	-1.77
UCCUGUGCUACACAUCGUAUGUACCGAAUCAAAGUGUGUGUGUGUGUGUGUGUGUGUAAAAAAGUAUUAUGUUACGCCGUUCGGAUCUGC	1.27
UGAAAAUGCUUUCAUGUUAAUUGUGUACACACAUUUCAUCUGUAUCCCUGUUUCUUUUCUCCCUACAGAAACAUAUGAGGAUUUUGAUAC	-0.501

Further values, each from its own experiment
Substance	target	test	system	conditions	how to read	endpoint	value
PhoQ, residues 284 288 289 292 302 303 MLMVEA	PhoP, residues 12 14 15 18 19 AWHSL (Escherichia coli, UniProt P23836)	Sort-seq, measured: YFP reporter	E. coli	PhoQ-PhoP variant library, with: 10 µM Mg2+	baseline: high Mg2+ state, higher = stronger signaling	fold induction	4.08

A few entries again (block 3):
Sequence	log2 enrichment
UCCUGUGCUACACAUCGUAUGUACCGAAUCGGGCCCCCGGGGCCCCCGGGCCCCCGGGGAAAGUAUUAUGUUACGCCGUUCGGAUCUGCA	-1.87
UUAGGGUCAUGUGAAGGUGGUGCGCUACUUAGUCAAAGAAGUCAAUCAGUUUCCAUCAGAUUCUGAAUGUAUGAGAUACAUAGCAACCAU	-1.85
